Published values of several laboratories.
Each numbered part is a random draw from the data of one study; scales do not carry over between parts.
Sequence of UniProt P28566 (whole entry, looked up): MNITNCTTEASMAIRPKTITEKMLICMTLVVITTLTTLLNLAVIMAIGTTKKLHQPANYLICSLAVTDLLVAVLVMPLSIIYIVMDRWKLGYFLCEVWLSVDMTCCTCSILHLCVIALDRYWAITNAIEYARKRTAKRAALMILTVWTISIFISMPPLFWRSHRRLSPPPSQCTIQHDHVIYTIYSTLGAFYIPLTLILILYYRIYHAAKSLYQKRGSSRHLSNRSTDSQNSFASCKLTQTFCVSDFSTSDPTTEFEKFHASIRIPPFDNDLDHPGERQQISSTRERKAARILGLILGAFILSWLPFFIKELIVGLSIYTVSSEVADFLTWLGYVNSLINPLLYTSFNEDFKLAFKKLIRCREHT
Sequence of UniProt Q14542 (whole entry, looked up): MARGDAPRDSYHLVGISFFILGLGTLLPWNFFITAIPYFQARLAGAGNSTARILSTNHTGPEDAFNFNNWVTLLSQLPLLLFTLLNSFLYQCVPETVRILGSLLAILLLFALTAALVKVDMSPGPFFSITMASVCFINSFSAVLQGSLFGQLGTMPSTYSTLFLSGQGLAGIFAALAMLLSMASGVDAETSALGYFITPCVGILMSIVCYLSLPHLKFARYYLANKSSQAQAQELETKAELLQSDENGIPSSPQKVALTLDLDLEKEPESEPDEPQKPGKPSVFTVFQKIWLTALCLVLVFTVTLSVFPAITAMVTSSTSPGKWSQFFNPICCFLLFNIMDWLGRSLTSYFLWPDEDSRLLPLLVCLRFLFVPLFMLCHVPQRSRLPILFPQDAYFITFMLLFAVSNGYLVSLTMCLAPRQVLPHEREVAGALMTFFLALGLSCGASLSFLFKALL

Block 1
Organism: Sarcocystis neurona
Read-out: parasite growth
Tested at: 10 µM
SMILES	inhibition [%]
CO[C@H]1/C=C/O[C@@]2(C)Oc3c(C)c(O)c4c(O)c(c5c(nc6cc(C)ccn65)c4c3C2=O)NC(=O)/C(C)=C\C=C\[C@H](C)[C@H](O)[C@@H](C)[C@@H](O)[C@@H](C)[C@H](OC(C)=O)[C@@H]1C	-23.5
CN1CCC(=C2c3ccccc3C=Cc3ccccc32)CC1	11.9
CC(COc1ccccc1Cc1ccccc1)N1CCCCC1.O=P(O)(O)O (stereo not drawn)	8.3
O=c1[nH]cc(F)c(=O)[nH]1	75.6
C[C@H]1O[C@H](O[C@H]2[C@H](O)[C@@H](O)[C@@H](O[C@H]3[C@H](O)[C@@H](O)C(O)O[C@@H]3CO)O[C@@H]2CO)[C@H](O)[C@@H](O)[C@@H]1N[C@H]1C=C(CO)[C@@H](O)[C@H](O)[C@H]1O (stereo partly drawn)	-25.3
CC(=O)SCC(Cc1ccccc1)C(=O)NCC(=O)OCc1ccccc1 (stereo not drawn)	-33.6
OC(CCN1CCCC1)(c1ccccc1)C1CCCCC1 (stereo not drawn)	7.5

Block 2
Host: human
Medium: microsomes or S9
Tested at: 2 µM
Time: 0.5 h
Compound	remaining compound [%]
CCN1C(=O)C2(CC(=O)Nc3c2cnn3-c2ccccc2Cl)c2cccc(C)c21 (stereo not drawn)	0
Cc1cc2ncccc2c(Br)c1OS(=O)(=O)C(F)(F)F	91.2
CCOC(=O)c1c(N)sc2c1CCC(CC)C2 (stereo not drawn)	81
CC(C)c1nc(NCCc2nnc3ccccn23)nc(N(C)C)n1	30
CC(C)Cc1nc2nccc(-c3ccncc3)n2n1	86.8
CC(C)CCC1CCN(C(=O)C2CC(O)CN2)CC1 (stereo not drawn)	107
CC(C)(C)c1ccc(-c2n[nH]c(-c3ccccc3N)nc2=O)cc1	81.1
Fc1ccc(Nc2cnnc3c(Cl)cccc23)cc1	33.1
Cc1c(C#N)c2ccccc2n1Cc1nc(Cc2ccccc2)n[nH]1	65.9
Cc1c(Br)cc(C(=O)N(C)Cc2cscn2)c(=O)n1C	24.4

Block 3
Structure (SMILES): CC(C)n1cnc(-c2ccc(F)cc2)c1-c1ncc(C(=O)Nc2ccc(N3CCN(C)CC3)cc2)[nH]1
Method: phase 2a trial
Host: idiopathic pulmonary fibrosis patients
dose	setting	patients with headache [%]
60 mg once daily	grade 3 emergent event	0
60 mg once daily	grade 4 emergent event	0
60 mg once daily	grade 2 emergent event	0
30 mg once daily	grade 5 emergent event	0

Block 4
Target: Activin receptor type-1-like (ACVRL1, Homo sapiens, UniProt P37023)
Sequence of UniProt P37023 (whole entry, looked up): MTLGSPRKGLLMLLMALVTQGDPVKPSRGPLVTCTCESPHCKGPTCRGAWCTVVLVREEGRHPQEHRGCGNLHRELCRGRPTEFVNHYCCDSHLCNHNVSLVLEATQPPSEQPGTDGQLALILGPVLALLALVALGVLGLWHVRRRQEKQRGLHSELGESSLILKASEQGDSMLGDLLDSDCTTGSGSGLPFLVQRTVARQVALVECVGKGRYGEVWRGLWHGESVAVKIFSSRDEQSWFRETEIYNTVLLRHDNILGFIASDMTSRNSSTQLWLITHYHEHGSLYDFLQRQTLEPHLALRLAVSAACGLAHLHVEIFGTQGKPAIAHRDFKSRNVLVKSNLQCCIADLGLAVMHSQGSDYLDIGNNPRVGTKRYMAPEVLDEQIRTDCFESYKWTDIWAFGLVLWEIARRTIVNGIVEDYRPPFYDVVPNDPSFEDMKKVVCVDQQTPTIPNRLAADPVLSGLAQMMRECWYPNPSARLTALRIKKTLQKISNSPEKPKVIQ
Read-out: enzyme activity
Mode: inhibitor
Tested at: 0.5 µM
Baseline: control
Compound	remaining activity [%]
c1ccc(-c2[nH]ncc2-c2ccnc3ccccc23)nc1	102
CCN(CC)CCNC(=O)c1c(C)[nH]c(/C=C2\C(=O)Nc3ccc(Cl)cc32)c1C	89
COc1cc2ncnc(Nc3cccc(Cl)c3)c2cc1OC	96.4
O=C1C(Cl)=C(N2C(=O)CCC2=O)C(=O)c2ccccc21	105
Cn1nc2c3c(cccc31)C(=O)c1ccccc1-2	102
O=c1cc(-c2cccc3c2Sc2ccccc2S3)oc(N2CCOCC2)c1	99.9
Cc1cc2ncc(-c3ccccc3)nc2cc1C	97.9
COc1cc2c(cc1OC)-c1[nH]nc(Nc3cccc(F)c3)c1C2	102
Nc1cccc(-c2cc3c(Oc4cccc(O)c4)ncnc3[nH]2)c1	70.3
CCOc1nc(NC(=O)Cc2cc(OC)ccc2OC)cc(N)c1C#N	107
O=C(Nc1cccc(Nc2nccc(Nc3cccc(C(F)(F)F)c3)n2)c1)C1CC1	84.6
CCN(CC)C(=O)c1ccc(Nc2nc(OCC3CCCCC3)c3[nH]cnc3n2)cc1	106
Cc1cn(-c2cc(NC(=O)c3ccc(C)c(Nc4nccc(-c5cccnc5)n4)c3)cc(C(F)(F)F)c2)cn1	116
COc1cc2ncnc(Nc3ccc(O)c(Br)c3)c2cc1OC	102
N#C/C(=C\c1ccc(O)c(O)c1)C(=O)NCc1ccccc1	106
Ic1cccc(CSc2nnc(-c3ccncc3)o2)c1	103
O=C1c2ccccc2-c2n[nH]c3cccc1c23	112
Cc1nc2cc3nc(-c4cccs4)cnc3cc2n1C	109
N#Cc1c(NC(=O)c2cccc3ccccc23)sc2c1CCCC2	107
CN(C)C[C@H]1CCn2c(c(C3=C(c4cn(C)c5ccccc45)C(=O)NC3=O)c3ccccc32)C1	98.5
O=C(NC(NC(=S)Nc1ccc(F)c([N+](=O)[O-])c1)C(Cl)(Cl)Cl)C(c1ccccc1)c1ccccc1 (stereo not drawn)	107
CN([C@@H](Cc1ccc(OS(=O)(=O)c2cccc3cnccc23)cc1)C(=O)N1CCN(c2ccccc2)CC1)S(=O)(=O)c1cccc2cnccc12	103
c1ccc(-c2cnc(Nc3ccc(OCCN4CCCC4)cc3)s2)cc1	108
C[C@@H]1CCN(C(=O)CC#N)C[C@@H]1N(C)c1ncnc2[nH]ccc12	100

Further values, each from its own experiment
Compound	target or system	test	system	conditions	measurement	value
Cn1cncc1[C@@](O)(COc1ccc(C#N)cc1-c1ccc(OC(F)(F)F)cc1)c1ccc(C#N)cc1	HEK293T	high-content imaging	–	10 µM, 24 h	cells with high Hoechst intensity	5.7%
COc1cc(C(=O)OCCCN2CCCN(CCCOC(=O)c3cc(OC)c(OC)c(OC)c3)CC2)cc(OC)c1OC	Equilibrative nucleoside transporter 2 (Homo sapiens, UniProt Q14542)	adenosine uptake, inhibitor	Xenopus laevis oocytes	with: [3H]adenosine	Hill slope	-0.856
CC(=O)Nc1nc(CN2CCC[C@H](Cc3cc(C)nc(C)c3)C2)cs1	HTR1E (Homo sapiens, UniProt P28566)	ligand displacement	–	10 µM	inhibition	0.93%
